# Published values collected from several papers.
# Numbered parts are unrelated; each lists some results of a single study.

# Sample 1 — technique: protein binding microarray; molecule type: double-stranded DNA, one strand shown; sample: in vitro; tested at: not given; baseline: not given; reading: higher = stronger binding
# Target: Histone acetyltransferase KAT6A, winged helix 1, GST fusion (KAT6A, Homo sapiens, UniProt Q92794, residues 1-85)
# Notes: 8-mer, flanks averaged, mean of 2 arrays, mostly near background
# Construct (chain): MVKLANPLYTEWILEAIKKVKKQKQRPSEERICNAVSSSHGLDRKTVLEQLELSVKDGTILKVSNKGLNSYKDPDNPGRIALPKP
Sequence,E-score
AAGATGAA,-0.144
GGTGAACC,0.0597
CTGAGATA,-0.219
ACCACGCC,0.149
ATGACTTG,-0.0462
CCGCTCCG,0.37
CTGGTCTC,-0.257
AAGGATTC,-0.148
CATCGAAG,0.0435
GCGCATAC,0.376
ACCCACCT,-0.223
GTGAACGA,-0.214
GGATCTAA,0.0495
AACTGGGG,-0.287
AGACTGAA,-0.183
CACTTATG,-0.181
CGCCCTAG,0.18
GCATTAAC,0.0532
CTGGATAC,-0.0491
ACCCGTGA,0.307
ACTAGAGG,-0.125
GCTGGTTA,-0.233
GAAGCAAC,-0.2
ATGTCAGA,-0.063
TCCTGGCA,-0.134

# Sample 2 — technique: competition protein-binding microarray; molecule type: double-stranded DNA, one strand shown; sample: in vitro; tested at: 2 µM; together with: Cbf1 competitor, 0.05 µM; reading: higher = stronger binding; all sequences stand within: … GTCTTGATTCGCTTGACGCTGCTG
# Target: Phosphate system positive regulatory protein PHO4, full length, GST-tagged (PHO4, Saccharomyces cerevisiae, UniProt P07270, residues 1-312)
# Notes: whole 60-bp probe, lowest competitor level
# Construct (chain): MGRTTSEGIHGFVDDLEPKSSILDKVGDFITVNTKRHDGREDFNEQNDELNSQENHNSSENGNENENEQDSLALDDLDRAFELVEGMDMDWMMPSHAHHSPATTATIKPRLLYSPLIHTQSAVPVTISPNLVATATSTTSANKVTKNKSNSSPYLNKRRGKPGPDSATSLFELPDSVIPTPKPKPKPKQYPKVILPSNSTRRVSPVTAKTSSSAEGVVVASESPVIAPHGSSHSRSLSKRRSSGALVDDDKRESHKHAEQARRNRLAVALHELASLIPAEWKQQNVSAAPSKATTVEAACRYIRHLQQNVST
Sequence,fluorescence intensity [a.u.]
CTTTCCCGATCTTGGCCTGTGGGTGTAGCACATTTG,4700
CGTCCTAGTGATTGGTTAGTGGGTGCCATGAGGAAG,6380
ACCAACCCAGGTACCGATGTGACGGTTTCCTCAGTC,4220
TGCGCAACAACTTGCCAAGTGGGTGTATGTCTAGAA,4980
AAATTACTAAGTTGTCACGCGACTTACCCCGTATGA,7370
AAATTACTAAGTTGTAAAGTGGGTGACGCCGTATGA,4000
TTGTGGGAGTGATTGTGCGTGTATATGTGTGTTGGC,8020
CATACCCAACCTTGTCAAGTGGGTGAAGATATTTGT,3450
TACATTTCTTCCCCTCTCGTGATGGCTAGATAATAG,6860
CTTGGAGACACCCTTCACGGGCCGCCCGGGTATCCG,4110
TACTCCACTGCTCCACACGTTGTTGCTGCTGTTATG,14300
AAGTTAATCGTCGAGACCGTGACGGATCTTAAGCGC,5610
TGCGCAACAACTTGGTTCGTGGGTGTATGTCTAGAA,7290
TGGGAATCCGCTTGGCGCGTGATGGAGCCAATGAAC,7980
TTCAGACAAATCCAACATGTGGGAGGAGAATAATGG,11800
TCACCAGACAAATATCACCTGGAACCACATCTTTTG,3610
CTTCTGTAAATTTGCTTAGTGGGTGGACGCGCCCCG,3870
AAGGTAGCCAAGAATACCGTGATGGTTGCTTAGTAT,4750
CGTCCTAGTGATTGGTGCGTGGGTGCCATGAGGAAG,10800
GAGCTTCTACTAAATAACGAGCAAGCAAGGGACGCT,3300
TGCGCAACAACTTGTTTCGTGGGTGTATGTCTAGAA,5450
CATACCCAACCTTGTGAAGTGGGTGAAGATATTTGT,4050
CCTTTGTCGGTGGTACTCGTGGTGACGGTCCAAGAA,8660
CGGGGTTAAGTTTATCACGTGTTTTGCTTGCAGCAG,16600
TCATCACCAGAAAGTGACATGACAAGAGATTCTGGT,4110

# Sample 3 — technique: RNA Bind-n-Seq; molecule type: RNA; sample: in vitro; tested at: not given; notes: 4-mer, random 30-nt RNA, single round; together with: RocA, ADP, phosphate; baseline: input library; reading: higher = stronger binding
# Target: Eukaryotic initiation factor 4A-I (EIF4A1, Homo sapiens, UniProt P60842, residues 1-406, full length assumed)
# Chain of UniProt P60842 (whole entry, looked up): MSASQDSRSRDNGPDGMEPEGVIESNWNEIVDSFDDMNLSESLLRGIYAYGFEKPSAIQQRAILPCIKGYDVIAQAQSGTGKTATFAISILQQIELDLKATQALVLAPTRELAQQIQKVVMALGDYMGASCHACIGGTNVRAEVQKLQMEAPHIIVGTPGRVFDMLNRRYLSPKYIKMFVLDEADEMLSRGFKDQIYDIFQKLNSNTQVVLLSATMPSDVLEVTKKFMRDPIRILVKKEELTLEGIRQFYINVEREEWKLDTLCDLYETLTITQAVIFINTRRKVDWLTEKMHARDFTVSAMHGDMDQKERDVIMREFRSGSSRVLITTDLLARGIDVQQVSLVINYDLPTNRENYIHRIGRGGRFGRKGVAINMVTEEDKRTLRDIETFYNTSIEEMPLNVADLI
Sequence,4-mer enrichment
ACCU,0.588 fold
CACA,0.687 fold
CUCG,0.536 fold
UUGC,0.688 fold
AAAA,1.34 fold
UGAU,0.878 fold
AUGA,1.46 fold
ACCA,0.663 fold
ACCG,0.688 fold
GCGG,0.986 fold
GAUU,0.986 fold
CUAA,0.727 fold
AUGU,0.935 fold
AUUG,1.05 fold
UACU,0.618 fold
CGGG,0.963 fold

# Sample 4 — technique: RNA Bind-n-Seq; molecule type: RNA; sample: in vitro; tested at: 365 nM; baseline: no-protein control; reading: higher = stronger binding
# Target: RNA binding protein fox-1 homolog 2, RRM domain, GST-SBP tag (RBFOX2, Homo sapiens, UniProt O43251-10, residues 100-194)
# Notes: natural RNA segment, single round, ends assumed
# All sequences stand within: GGGAGUUCUACAGUCCGACGAUC … UGGAAUUCUCGGGUGCCAA
# Target sequence (chain): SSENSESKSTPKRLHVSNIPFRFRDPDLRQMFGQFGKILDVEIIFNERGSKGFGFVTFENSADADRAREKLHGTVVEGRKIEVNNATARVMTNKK
Sequence,RBNS enrichment (R)
CUGGAAAGACAUCUCCAAGGUGAGGUCCACCCCCACAGCAGACCUCAAGUAGAAAUUGCCCAAUUUUUACCAGCUGGAGGGACACCCUUGGGUUUUUGUACGAAGCUAUU,0.427
AGCCUAGAUGGACCCAACCCCGCCCCAGAGGGCAGCAGGUGGGGGUGGGCAAUGUUGGCGCUCACCUGGUCAGUGCACCAGUACCAGGUGGCCAUGAUGGUCAGACCAAA,0.649
CCAGUGAUGUUUCCACGGUGCCUGUACACAGCCGAGCAGCAUUUCCGUUGAAGGACUUGCAUCCCCAUUGCGGGCAGUGCUGGACGUGUCCCGGAGACCCACCGGGAGGG,0.687
ACCUCACAGCCACCCUGAGGCUCUCUGACCCUGGGAUGCUGAGGCCUUCUUAGCCUCUAGGUACAGUCUGUAGGAUGGAAAGCUUUUAGGAGUGGGCAGGGCCGAAUGGA,0.353
AAGUCUUUUACAAGAGGGACAACCCUAUUUUGGGAAACAAUAUCUCAUGGGAAGAAAACUGUACACACUGAACGCAUAGCCCGCUUAGAGAUCACAUCGCCUCUUAGAGA,0.182
ACCUCCUCGGCAAUUGCUCAUUCUAGGGUUGGGCAUCAUAGUUGGUCAGUCUUAAUUCCCAUGCCAAAGGACAAACAGGUGUGACAUUUGGAUAGAUGAAUACUGGGAUU,0.684
ACUUUAUGAAGGGGCGUUUUUAAGUUGUUUAGCAGUGACAUUUAAUAUGGUCCAAUUGCUUUUCUUUUUAACAUGACAAACAAUUUUAAAAGAGACUAAGGAACAAACAC,0.244
UAAAAAGUGUAUUUCUUUGCCAUUUGAUUUGGCUGAAGGACAGUCAGCAUCCUGUGUGAGAACACAUUUUGAAAGCCCAAUGACAUCAACUGGGUAAAGGAAACACUAAC,0.659
AGCAUUUCAGCUGGGAGAUCUCCCUCUGGCCACCAGGACUCUGGCUACUGUUAAAAUCCUGAUGUUUCUGUGGAAUCCUCAGUGUUUAAUCCCACUCAAUAGUAUCAUUA,0.455
UAAUAGGAUGCAAGUCUAAGCGUUUCAUGUGGACAUAAAUGUAUCUAAAUAAAACUUCCCCUAGCACUGUGGCUGACCUCACCCUUACUUUUAUACUUUAGUAUGAAACU,0.48
CAGCAUGUGUCCUGAAGACGUUCAUAGAUUUAUAGGAAAUAAAGCCAAAUGUAGCUCAUACCUCUUUAUAAAACUAAACUGUUGUUAGAUAAAAUGAGAAGAGACCAUUC,9.15
AGCUCUUUGGCUCGUGAACCUAAUUGUAAACUUUCAGGUAUUUUUGUACAAAUAAGGGACUGAUGUUCUGUUUCUUGUAAUUAGAAAUAAACAUUAAUACAGUGUUCUUC,0.304

# Sample 5 — technique: protein-binding microarray; molecule type: double-stranded DNA, one strand shown; sample: in vitro; tested at: 940 nM top; notes: 60-bp whole probe; together with: salmon DNA 0.4 mg/ml; baseline: random background probes; reading: higher = stronger binding; all sequences stand within: GCCTAGCAC … GTCTTGATTCGCTTGACGCTGCTG
# Target: Interferon regulatory factor 5, full length, phosphomimetic (IRF5, Homo sapiens, UniProt Q13568-2, residues 1-514, S451D/S453D/S456D/S462D)
Sequence,fitted relative affinity
GACGAACTGGACTTTCGGGACGTGCTA,0.612 z-score
TTAGGACTGGACTATCGATTAGTGCTA,-0.135 z-score
TTAGGTATCGACATTGGGTTAGTGCTA,4.66 z-score
GACGGTATCCGTATCCTGACGTGCTAG,0.233 z-score
TTAGGACTGGACTTTCGCTTAGTGCTA,0.606 z-score
TTAGGTCTCGTACTGCTTTAGTGCTAG,0.81 z-score
TCAAATCTTGAGTTAGAACTGTGCTAG,-0.263 z-score
GACCGTTTCCTTATCCTGACGTGCTAG,1.27 z-score
TTAGATTTCGGGTATTGATTAGTGCTA,1.55 z-score
GACGATCTCGGTTTCGAGACGTGCTAG,4.08 z-score
TTAGATTTCCGTTCCGATTAGTGCTAG,1.06 z-score
GACGATTCCGGGTTTCGAGACGTGCTA,2.14 z-score
TTAGGTTTGGGTATCGGTTAGTGCTAG,4.3 z-score
GACGATATCACTCTCGAGACGTGCTAG,1.5 z-score
AGTGTTATAATATTATTGCAGTGCTAG,-0.256 z-score
TCAGTTGTCCAGGCTGGTACTGTGCTA,-0.26 z-score
TACGGTTTCCTACTGCTGACGTGCTAG,0.745 z-score
TCATTTTTTTTTTCTACACTGTGCTAG,1.88 z-score
GACGGACTGGGTTATCGGGACGTGCTA,-0.288 z-score
TTAGGTTCCCTTTTCCTTTCGTGCTAG,1.08 z-score
TTAGATATCGGGTTTCGCTTAGTGCTA,3.21 z-score
TCATTTCTGAATGTCCTACTGTGCTAG,0.476 z-score
TTAGGTTTCCTTATCCTTTGGTGCTAG,1.66 z-score
TCAACTCTAATCTCACTCACTGTGCTA,1.21 z-score
TTAGGTTTACTTTTCCTTTAGTGCTAG,0.395 z-score
